Measured values pooled from the literature.
Each line is one published result; not all experiments were run side by side. ± gives the spread as reported.
ribH: 6,7-dimethyl-8-ribityllumazine synthase (ribH, Mycobacterium tuberculosis, UniProt P9WHE9)
Sequence of UniProt P9WHE9 (whole entry, looked up): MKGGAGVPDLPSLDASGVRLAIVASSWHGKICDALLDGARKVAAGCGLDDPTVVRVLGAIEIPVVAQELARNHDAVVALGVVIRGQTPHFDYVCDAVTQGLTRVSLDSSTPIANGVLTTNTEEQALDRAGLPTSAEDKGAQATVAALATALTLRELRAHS
B1: α-TTP I202D/M209D; sequence looked up; chain MAEARSQPSAGPQLNALPDHSPLLQPGLAALRRRAREAGVPLAPLPLTDSFLLRFLRARDFDLDLAWRLLKNYYKWRAECPEISADLHPRSIIGLLKAGYHGVLRSRDPTGSKVLIYRIAHWDPKVFTAYDVFRVSLITSELIVQEVETQRNGIKAIFDLEGWQFSHAFQITPSVAKKIAAVLTDSFPLKVRGIHLINEPVDFHAVFSDIKPFLTEKIKERIHMHGNNYKQSLLQHFPDILPLEYGGEEFSMEDICQEWTNFIMKSEDYLSSISESIQ
B2: α-TTP F165D; sequence looked up; chain MAEARSQPSAGPQLNALPDHSPLLQPGLAALRRRAREAGVPLAPLPLTDSFLLRFLRARDFDLDLAWRLLKNYYKWRAECPEISADLHPRSIIGLLKAGYHGVLRSRDPTGSKVLIYRIAHWDPKVFTAYDVFRVSLITSELIVQEVETQRNGIKAIFDLEGWQDSHAFQITPSVAKKIAAVLTDSFPLKVRGIHLINEPVIFHAVFSMIKPFLTEKIKERIHMHGNNYKQSLLQHFPDILPLEYGGEEFSMEDICQEWTNFIMKSEDYLSSISESIQ
B3: T4 DNA ligase (1–129); sequence looked up; chain MILKILNEIASIGSTKQKQAILEKNKDNELLKRVYRLTYSRGLQYYIKKWPKPGIATQSFGMLTLTDMLDFIEFTLATRKLTGNAAIEELTGYITDGKKDDVEVLRRVMMRDLECGASVSIANKVWPGL
B4: α-TTP I202D; sequence looked up; chain MAEARSQPSAGPQLNALPDHSPLLQPGLAALRRRAREAGVPLAPLPLTDSFLLRFLRARDFDLDLAWRLLKNYYKWRAECPEISADLHPRSIIGLLKAGYHGVLRSRDPTGSKVLIYRIAHWDPKVFTAYDVFRVSLITSELIVQEVETQRNGIKAIFDLEGWQFSHAFQITPSVAKKIAAVLTDSFPLKVRGIHLINEPVDFHAVFSMIKPFLTEKIKERIHMHGNNYKQSLLQHFPDILPLEYGGEEFSMEDICQEWTNFIMKSEDYLSSISESIQ
Sequence of UniProt O54982 (whole entry, looked up): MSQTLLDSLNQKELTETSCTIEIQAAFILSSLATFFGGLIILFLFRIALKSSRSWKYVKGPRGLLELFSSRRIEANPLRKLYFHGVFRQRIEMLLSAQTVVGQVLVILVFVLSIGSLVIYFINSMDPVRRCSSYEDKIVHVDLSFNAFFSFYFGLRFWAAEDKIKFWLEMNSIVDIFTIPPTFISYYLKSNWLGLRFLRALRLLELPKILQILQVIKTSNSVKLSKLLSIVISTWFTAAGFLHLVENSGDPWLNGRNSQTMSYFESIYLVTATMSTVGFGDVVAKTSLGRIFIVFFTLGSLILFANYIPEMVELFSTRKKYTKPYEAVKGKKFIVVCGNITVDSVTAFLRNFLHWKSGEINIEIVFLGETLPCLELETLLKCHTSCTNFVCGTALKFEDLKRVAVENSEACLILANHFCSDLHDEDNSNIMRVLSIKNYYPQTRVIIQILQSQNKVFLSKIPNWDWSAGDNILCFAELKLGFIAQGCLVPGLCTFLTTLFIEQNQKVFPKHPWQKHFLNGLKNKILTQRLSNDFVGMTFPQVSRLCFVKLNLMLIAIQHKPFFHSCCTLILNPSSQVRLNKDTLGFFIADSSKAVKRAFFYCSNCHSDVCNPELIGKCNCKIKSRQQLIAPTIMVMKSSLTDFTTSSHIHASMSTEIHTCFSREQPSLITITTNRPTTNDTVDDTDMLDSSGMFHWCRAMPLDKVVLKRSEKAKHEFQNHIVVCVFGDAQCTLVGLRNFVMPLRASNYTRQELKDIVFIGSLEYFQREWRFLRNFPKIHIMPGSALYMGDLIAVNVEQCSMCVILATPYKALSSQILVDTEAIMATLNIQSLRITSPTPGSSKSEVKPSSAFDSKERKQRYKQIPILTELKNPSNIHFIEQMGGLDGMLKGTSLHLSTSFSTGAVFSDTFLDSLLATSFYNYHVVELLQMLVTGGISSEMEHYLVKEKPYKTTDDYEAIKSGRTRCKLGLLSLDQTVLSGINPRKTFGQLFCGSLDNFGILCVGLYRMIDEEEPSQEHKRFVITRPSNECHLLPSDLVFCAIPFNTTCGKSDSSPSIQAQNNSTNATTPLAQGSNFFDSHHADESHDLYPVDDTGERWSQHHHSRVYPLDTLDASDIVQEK

Substance | tested on | assay | test system | setting | measurement | value
COc1cccc(/C=C/c2[nH]c(=O)[nH]c(=O)c2[N+](=O)[O-])c1OC | ribH | enzyme activity, inhibitor |  | pH 7.0 | Ki | 9.6 ± 4.5 µM
B1 (α-TTP I202D/M209D) |  | binding, dual polarization interferometry | immobilized phospholipid bilayer | 20 °C | Kd | 4.49 ± 2.1 µM
CC[N+](CC)(CC)CC | Kcnu1, Slo1 N-terminal chimera (Mus musculus, UniProt O54982) | ion current, blocker, cytosolic application |  | pH 8.5, open-channel block, added: Ca2+ 0 | Kb | 110 ± 10 µM
B2 (α-TTP F165D) |  | binding, dual polarization interferometry | immobilized phospholipid bilayer | 20 °C | Kd | 4.99 ± 1.9 µM
B3 (T4 DNA ligase) |  | DNA binding, fluorescence polarization | nicked dsDNA probe | pH 7.4, 0.1 M NaCl, added: 15 nM fluorescein-labelled DNA probe | Kd | 138 µM
vimentin |  | binding, OI-RD scanning microscopy | immobilized peptide on epoxy glass | rabbit mAb mixture analyte | Kd | 0.0017 µM
CCOC(=O)C1=C(C)NC2=C(C(=O)CC(C)(C)C2)C1c1ccc(-c2ccccc2)cc1 (centres unmarked) | HEK293T (HA-TGFBR2-mCherry) | total receptor level, degrader, flow cytometry |  |  | IC50 | 1.31 µM
O=c1[nH]c(C=Cc2ccccc2)c([N+](=O)[O-])c(=O)[nH]1 | ribH | enzyme activity, inhibitor |  | pH 7.0 | Ki | 15 ± 7.3 µM
B4 (α-TTP I202D) |  | binding, dual polarization interferometry | immobilized phospholipid bilayer | 20 °C | Kd | 2.05 µM
COc1cc(/C=C/c2[nH]c(=O)[nH]c(=O)c2[N+](=O)[O-])cc(OC)c1OC | ribH | enzyme activity, inhibitor |  | pH 7.0 | Ki | 17 ± 4 µM
N=C(N)NCCC[C@@H]1NC(=O)[C@H](CCCNC(=N)N)NC(=O)[C@H](CCCNC(=N)N)NC(=O)[C@H](Cc2ccc3ccccc3c2)NC(=O)[C@H](Cc2ccccc2)NC(=O)[C@H](CCC(N)=O)NC(=O)[C@H](CCCNC(=N)N)NC1=O |  | lipid binding, fluorescence polarization | small unilamellar vesicles PC/PE/sphingomyelin/cholesterol | 2 h, room temperature, EC50 as lipid concentration | EC50 | 713 ± 76 µM

For quick reference, copied from above:
Substance | tested on | assay | test system | setting | measurement | value
COc1cc(/C=C/c2[nH]c(=O)[nH]c(=O)c2[N+](=O)[O-])cc(OC)c1OC | ribH | enzyme activity, inhibitor |  | pH 7.0 | Ki | 17 ± 4 µM
